Results from different studies.
Each line is one published result; not all experiments were run side by side. ± marks the error that the study gave.
rep main protease: Replicase polyprotein 1ab, main protease (rep, Severe acute respiratory syndrome coronavirus 2, UniProt P0DTD1)

| Substance | target or system | assay | system | setting | quantity | value |
| --- | --- | --- | --- | --- | --- | --- |
| Nc1ncnc2c([C@@H]3N[C@H](CO)[C@@H](O)[C@H]3O)c[nH]c12 | Zaire ebolavirus | antibody staining | HeLa, Kikwit | 100 µM | antigen-positive cells | 0.03% |
| C=C[C@@H]1C[C@]1(NC(=O)[C@@H]1C[C@@H](Oc2ncc(OC)c3ccc(Cl)cc23)CN1C(=O)[C@@H](NC(=O)OC(C)(C)C)C(C)(C)C)C(=O)NS(=O)(=O)C1CC1 | rep main protease | reporter gene (Gaussia luciferase), inhibitor | – | 20 µM | inhibition | 2.47% |
| Cn1cnc(Cn2c(=O)[nH]/c(=N\c3cc4cn(C)nc4cc3Cl)n(Cc3cc(F)c(F)cc3F)c2=O)n1 | – | – | human, mild renal impairment | oral, 375 mg | any TEAE, moderate severity | 12.5% |
| SVLHSTQDLFLPFFS | human CD4 T cells | AIM | peptide | – | responding donors | 15% |
| CC[C@H](C)[C@H](NC(=O)[C@H](CC(C)C)NC(=O)[C@H](Cc1c[nH]c2ccccc12)NC(=O)[C@H](CCC(N)=O)NC(=O)[C@@H](NC(=O)[C@H](Cc1ccccc1)NC(=O)[C@H](C)NC(=O)[C@H](CCCCNC(=O)COCCOCCNC(=O)COCCOCCNC(=O)CC[C@H](NC(=O)CCCCCCCCCCCCCCCCCCC(=O)O)C(=O)O)NC(=O)[C@H](CCC(N)=O)NC(=O)[C@H](C)NC(=O)[C@@H](NC(=O)[C@H](CCCCN)NC(=O)[C@H](CC(=O)O)NC(=O)[C@H](CC(C)C)NC(=O)C(C)(C)NC(=O)[C@@H](NC(=O)[C@H](CO)NC(=O)[C@H](Cc1ccc(O)cc1)NC(=O)[C@H](CC(=O)O)NC(=O)[C@H](CO)NC(=O)[C@@H](NC(=O)[C@H](Cc1ccccc1)NC(=O)[C@@H](NC(=O)CNC(=O)[C@H](CCC(=O)O)NC(=O)C(C)(C)NC(=O)[C@@H](N)Cc1ccc(O)cc1)[C@@H](C)O)[C@@H](C)O)[C@@H](C)CC)[C@@H](C)CC)C(C)C)C(=O)N[C@@H](C)C(=O)NCC(=O)NCC(=O)N1CCC[C@H]1C(=O)N[C@@H](CO)C(=O)N[C@@H](CO)C(=O)NCC(=O)N[C@@H](C)C(=O)N1CCC[C@H]1C(=O)N1CCC[C@H]1C(=O)N1CCC[C@H]1C(=O)N[C@@H](CO)C(N)=O | – | – | healthy subjects, single ascending dose | 2.5 mg, baseline | serum amylase | 81 ± 17.7 U/L |
| HWFVTQRNFYEPQII | human CD4 T cells | AIM | peptide | – | responding donors | 7% |
| O=C1c2c(O)cccc2[C@@H]([C@@H]2O[C@H](CO)[C@@H](O)[C@H](O)[C@H]2O)c2cc(CO)cc(O)c21 | rep main protease | viral replication, mKate2 reporter | SARS-CoV-2 | 20 µM | inhibition | -0.203% |

For quick reference, copied from above:
| Substance | target or system | assay | system | setting | quantity | value |
| --- | --- | --- | --- | --- | --- | --- |
| SVLHSTQDLFLPFFS | human CD4 T cells | AIM | peptide | – | responding donors | 15% |
